Measured values of several laboratories.
Every numbered part comes from another study and shows a few of its results, in no order. Positions count from the first letter of the parent shown.

Set 1
Target: Centromere-binding protein 1, full length, His-tagged (CBF1, Saccharomyces cerevisiae, UniProt P17106, residues 1-351)
Sequence of UniProt P17106 (whole entry, looked up): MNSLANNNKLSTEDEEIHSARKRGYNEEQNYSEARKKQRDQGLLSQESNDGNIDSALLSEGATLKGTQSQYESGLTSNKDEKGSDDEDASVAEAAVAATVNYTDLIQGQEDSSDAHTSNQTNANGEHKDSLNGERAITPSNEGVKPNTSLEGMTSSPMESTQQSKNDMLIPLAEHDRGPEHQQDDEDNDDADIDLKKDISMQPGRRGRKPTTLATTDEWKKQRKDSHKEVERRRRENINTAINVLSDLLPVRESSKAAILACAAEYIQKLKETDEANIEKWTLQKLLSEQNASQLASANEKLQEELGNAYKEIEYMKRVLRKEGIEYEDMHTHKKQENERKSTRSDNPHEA
Method: competition protein-binding microarray
Form: double-stranded DNA, one strand shown
Medium: in vitro
Tested at: 2 µM
Notes: whole 60-bp probe, lowest competitor level
Added: Pho4 competitor, 0.05 µM
Direction: higher = stronger binding
Constant ends, left off below: … GTCTTGATTCGCTTGACGCTGCTG
| Sequence | fluorescence intensity [a.u.] |
| --- | --- |
| AAATTACTAAGTTTTCACGTGACGTACCCCGTATGA | 5500 |
| TGACCATTGACTTTGAACGTGGTCGTCCAGTAAAGT | 82.2 |
| GATGTAATGTCCACACAGGTGATGGAATCATCCATT | 78.3 |
| TGGGGATGATGATAGTCCGTGACGGTTGCCAGGGAA | 68 |
| TACATCTTTGGCAGCCACGTTTCCCAATACATGGAA | 99.9 |
| AAATTACTAAGTTGATGTGTGGGTGACGCCGTATGA | 64.8 |
| ATGGCACTCATTGATGGCGTGATGGAGCAGAACCTC | 93.4 |
| AAGCGCAAGTGATGGAATGTGATGCTTAAAGGCTAT | 100 |

Set 2
Target: RING finger protein unkempt homolog, zinc fingers 1-6, GST-SBP tag (UNK, Homo sapiens, UniProt Q9C0B0, residues 30-357)
Method: RNA Bind-n-Seq
Form: RNA
Medium: in vitro
Tested at: not given
Notes: RNA with constant flanks, human and mouse sites, ends assumed
Relative to: input RNA pool
Direction: higher = stronger binding
Constant ends, left off below: GGGAGUUCUACAGUCCGACGAUC … CAACAGAGGAUUGAGCAUCA
Construct (chain): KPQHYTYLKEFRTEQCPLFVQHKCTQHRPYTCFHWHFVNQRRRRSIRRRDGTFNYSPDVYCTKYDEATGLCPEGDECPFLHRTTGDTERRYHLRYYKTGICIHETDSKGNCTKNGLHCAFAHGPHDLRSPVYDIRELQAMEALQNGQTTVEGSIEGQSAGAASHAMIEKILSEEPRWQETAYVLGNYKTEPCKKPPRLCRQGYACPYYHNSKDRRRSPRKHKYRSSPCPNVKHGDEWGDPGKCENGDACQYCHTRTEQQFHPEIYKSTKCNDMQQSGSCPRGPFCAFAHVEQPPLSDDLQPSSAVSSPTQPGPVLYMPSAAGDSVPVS
| Sequence | bound/input enrichment [ratio] |
| --- | --- |
| ACCAGGGGAACUUCCAUCAAGGAGUUCCGGGAGAUGACCCUCAGCUUCCUCAAGGCUAACUUAGGAGACCUGCCUUCCCUGCCAGCGCUGGUUGACCAGAUACUUCUCAUGGCGGACUUC | 0.137 |
| UGCUUUACUGGAAAGACCCAGAAUAUGCCAAGUAUCUAAAGUACCCUCAGUGUUUACACAUGUUAGAGCUGCUCCAAUAUGAACACUUCCGAAAGGAGCUGGUGAAUGCUCAGUGUGCGA | 0.152 |
| GGAGAUAACCAGCCACUUCAUAUUUUUGACAAACUCCAUACAUCACCUCUUACUCAGAUACGGCUAAACCCAGUUUACAAAGCAGUAGUGUCUUCUGACAAAUCUGGGAUGAUUGAAUAC | 0.306 |
| AAGGCCUUCAUCACAUACCGAACCCUUACAAACCACAAAAAAGUUCAUCUUGGGGAGAAGCCCUACAAAUGUGAUGUGUGUGAGAAAUCUUUUAAUUACACAUCGCUCCUUUCUCAGCAC | 0.13 |
| CAAGGAAGAGGAUGCUCCUCAUAGAGAAGAUUACUUUGAGCCCAUUUCUCCUGAUCGGAAUUCUGUUCCCCAGGAAGGGCAAUAUUCUGAUGAAGGAGAAGUAGAAGAGGAACAACAAGA | 0.506 |
| GUCCAGCGCCUGAAUGAACUUGAGGCAAUGACUAGAGUAAGAUUGGACUUCUUGGAUCAACUGGCAAAAUUUUGGGAACUUCAAGGAUCUACAUUGAAGAUCCCUGUGGUGGAGAGAAAA | 0.224 |
| AUGACAGAAUCCAGCCAUUUCUUCCACCUGUGAUGCCAGUUGCUUGCUCAGGCCUCUUUCUCCUGUGGCUUUCUAGUCUUCUAUUCCCAGCUGUGAAGACCACACACAGAUGAACAAAUG | 0.987 |
| GCCAGAUGCUGGGUUCAGGCCUGGGUGCCCAGAUCGAUGGCGCAGAGUGCGUGCUACGCAUGAACCAGGCACCCACCGUGGGCUUUGAGGAGGACGUGGGCCAGCGCAGCACUCUGCGCG | 0.0715 |

Set 3
Target: CCND3, cyclin fold, Cln2 fusion (human)
Method: yeast growth competition, sequencing
Medium: yeast
Notes: weak parent motif
Relative to: not given
Direction: higher = stronger binding
Starting sequence: viral docking peptide; TSVRRALFTGGSD
| Change | normalised enrichment score |
| --- | --- |
| TLVRRALFTGGSD [S2L] | 0.387 |
| TSVRCALFTGGSD [R5C] | -0.0296 |
| TSVRRALWTGGSD [F8W] | -0.0162 |

Set 4
Target: tungstate, free oxyanion
Method: microfluidic competitive inhibition
Medium: in vitro, cell-free expressed
Tested at: not given
Notes: derived from inhibition constants, unchanged parent 2230 nM
Direction: lower = stronger binding
Starting sequence: PafA, mature enzyme, eGFP fusion (Elizabethkingia meningoseptica, UniProt Q9KJX5); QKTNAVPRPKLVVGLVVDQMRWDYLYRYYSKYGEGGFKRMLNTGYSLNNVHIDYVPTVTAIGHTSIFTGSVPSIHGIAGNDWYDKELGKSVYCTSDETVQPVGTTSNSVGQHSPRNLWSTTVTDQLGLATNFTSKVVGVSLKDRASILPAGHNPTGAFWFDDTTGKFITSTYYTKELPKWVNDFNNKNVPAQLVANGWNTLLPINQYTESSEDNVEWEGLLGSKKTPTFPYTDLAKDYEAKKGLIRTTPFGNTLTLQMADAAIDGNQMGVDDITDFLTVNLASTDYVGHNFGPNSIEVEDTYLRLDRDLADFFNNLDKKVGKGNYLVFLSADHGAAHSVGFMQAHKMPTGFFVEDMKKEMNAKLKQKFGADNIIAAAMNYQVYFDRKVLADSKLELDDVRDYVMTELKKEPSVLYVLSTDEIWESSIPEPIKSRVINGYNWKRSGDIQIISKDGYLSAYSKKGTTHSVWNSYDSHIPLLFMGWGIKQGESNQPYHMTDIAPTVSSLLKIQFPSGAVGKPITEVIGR
| Change | oxyanion analog dissociation constant |
| --- | --- |
| V12A | 2330 nM |
| L148V | 2000 nM |
| L417G | 2530 nM |

For quick reference, copied from above (set 1):
| Sequence | fluorescence intensity [a.u.] |
| --- | --- |
| TGGGGATGATGATAGTCCGTGACGGTTGCCAGGGAA | 68 |
| AAGCGCAAGTGATGGAATGTGATGCTTAAAGGCTAT | 100 |
